Assay results from different studies.
Lines come from different studies, so protocols differ. Several values in a cell are separate wells, animals, samples, runs or records. ± gives the spread as reported.

Compound	test	test system	setting	scale	measurement	result
N=C(N)NCCC[C@H](NC(=O)[C@H](CCCNC(=N)N)NC(=O)[C@H](CCCNC(=N)N)NC(=O)[C@H](CCC(N)=O)NC(=O)[C@H](CCCNC(=N)N)NC(=O)[C@H](CCCNC(=N)N)NC(=O)[C@H](CCCCN)NC(=O)[C@H](CCCCN)NC(=O)[C@H](CCCNC(=N)N)NC(=O)CNC(=O)[C@H](Cc1ccc(O)cc1)NC(=O)[C@H](Cc1ccccc1)NC(=O)[C@H](Cc1ccccc1)NC(=O)[C@H](Cc1ccccc1)NC(=O)Cc1ccc2ccccc2c1)C(=O)O		C57BL/6 mice	intraperitoneal, 20 mg/kg, 6 h	direction not given	health score	5
CSCC[C@H](N)C(=O)N[C@@H](C)C(=O)N[C@@H](CCCNC(=N)N)C(=O)N[C@@H](CCCNC(=N)N)C(=O)N[C@@H](CC(=O)O)C(=O)N[C@@H](CCCCN)C(=O)N[C@H](C(=O)N[C@@H](CC(=O)O)C(=O)N[C@@H](Cc1ccccc1)C(=O)N[C@@H](C)C(=O)N[C@@H](CCCNC(=N)N)C(=O)N[C@@H](CCCNC(=N)N)C(=O)N[C@@H](CCCNC(=N)N)C(=O)N[C@@H](CCCNC(=N)N)C(=O)NCCCCCC(=O)NCCCCC(NC(=O)CCCCCNC(=O)[C@H](CCCNC(=N)N)NC(=O)[C@H](CCCNC(=N)N)NC(=O)[C@H](CCCNC(=N)N)NC(=O)[C@H](CCCNC(=N)N)NC(=O)[C@H](C)NC(=O)[C@H](Cc1ccccc1)NC(=O)[C@H](CC(=O)O)NC(=O)[C@@H](NC(=O)[C@H](CCCCN)NC(=O)[C@H](CC(=O)O)NC(=O)[C@H](CCCNC(=N)N)NC(=O)[C@H](CCCNC(=N)N)NC(=O)[C@H](C)NC(=O)[C@@H](N)CCSC)[C@@H](C)O)C(=O)NCCCCC(NC(=O)C(CCCCNC(=O)CCCCCNC(=O)[C@H](CCCNC(=N)N)NC(=O)[C@H](CCCNC(=N)N)NC(=O)[C@H](CCCNC(=N)N)NC(=O)[C@H](CCCNC(=N)N)NC(=O)[C@H](C)NC(=O)[C@H](Cc1ccccc1)NC(=O)[C@H](CC(=O)O)NC(=O)[C@@H](NC(=O)[C@H](CCCCN)NC(=O)[C@H](CC(=O)O)NC(=O)[C@H](CCCNC(=N)N)NC(=O)[C@H](CCCNC(=N)N)NC(=O)[C@H](C)NC(=O)[C@@H](N)CCSC)[C@@H](C)O)NC(=O)CCCCCNC(=O)[C@H](CCCNC(=N)N)NC(=O)[C@H](CCCNC(=N)N)NC(=O)[C@H](CCCNC(=N)N)NC(=O)[C@H](CCCNC(=N)N)NC(=O)[C@H](C)NC(=O)[C@H](Cc1ccccc1)NC(=O)[C@H](CC(=O)O)NC(=O)[C@@H](NC(=O)[C@H](CCCCN)NC(=O)[C@H](CC(=O)O)NC(=O)[C@H](CCCNC(=N)N)NC(=O)[C@H](CCCNC(=N)N)NC(=O)[C@H](C)NC(=O)[C@@H](N)CCSC)[C@@H](C)O)C(N)=O)[C@@H](C)O (stereo partly shown)		C57BL/6 mouse female, heart	dose not given, 3 h	reference: total	mean tissue distribution	0.66%
O=C1NC2(CC2)COc2ncc(F)cc2[C@H]2COCCN2c2ccn3ncc1c3n2		Sprague-Dawley rat, male, blood	oral, 10 mg/kg/day, 4 weeks, end of recovery, subacute toxicity		mean corpuscular haemoglobin	18.1 ± 0.7 pg
CCN(CC)CCOc1ccc(-c2nnn(Cc3ccc(OC)cc3)c2N)cc1		beagle dog	oral, at least 40 mg/kg		mean blood pressure increase	≤ 12%
NC1CCN(C(=O)Oc2ccc(C3CCCC4(C3)OOC3(O4)C4CC5CC(C4)CC3C5)cc2)CC1 (racemic)		male mouse, plasma	intravenous, 10 mg/kg		clearance	147 mL/min/kg
CC(C)=CCC/C(C)=C/CCn1cc(CC(P(=O)(O)O)P(=O)(O)O)nn1		mouse CD-1, bile	intravenous, 0.3 mg/kg, 8 h		concentration	9560 ± 1430 ng/mL
CC(C)C[C@H](NC(=O)[C@H](CCCNC(=N)N)NC(=O)[C@H](CCC(=O)O)NC(=O)CNC(=O)[C@H](CCCCN)NC(=O)[C@@H](NC(=O)[C@H](Cc1ccccc1)NC(=O)[C@H](Cc1c[nH]c2ccccc12)NC(=O)[C@H](CCCCN)NC(=O)[C@H](CCCCN)NC(=O)[C@H](Cc1c[nH]c2ccccc12)NC(=O)CN)[C@@H](C)O)C(=O)N[C@@H](CO)C(=O)N[C@@H](CCC(N)=O)C(=O)N[C@@H](CCCNC(=N)N)C(=O)N[C@@H](Cc1c[nH]cn1)C(=O)N[C@@H](Cc1ccccc1)C(=O)N[C@@H](C)C(=O)O		zebrafish embryos 4 hpf, E3 medium	24 h		chronic toxic concentration	25 µM
CC(C)C[C@@H](NC(=O)[C@@H](CCCNC(=N)N)NC(=O)[C@@H](Cc1c[nH]cn1)NC(=O)[C@@H](Cc1c[nH]c2ccccc12)NC(=O)[C@@H](Cc1c[nH]cn1)NC(=O)[C@@H](Cc1ccccc1)NC(=O)[C@H](NC(=O)[C@@H](Cc1ccc(O)cc1)NC(=O)CNC(=O)CNC(=O)CCOCCOCCOCCNC(=O)CN1CCN(CC(=O)O)CCN(CC(=O)O)CC1)[C@H](C)O)C(=O)N[C@H](CC(N)=O)C(=O)N1CCC[C@@H]1C(=O)O [gallium-68 labelled]		male C57BL/6 mice	intravenous, 1.85 MBq, 60 min, added: antibody blocking	reference: tumour over heart	tumour-to-tissue ratio	4.62 ± 0.95
CC[C@H](C)[C@H](NC(=O)[C@H](CCCCN)NC(=O)CNC(=O)[C@H](CC(C)C)NC(=O)[C@H](Cc1ccccc1)NC(=O)[C@H](CCCCN)NC(=O)[C@H](CO)NC(=O)[C@H](Cc1ccccc1)NC(=O)[C@H](Cc1c[nH]c2ccccc12)NC(=O)[C@H](CCC(N)=O)NC(=O)[C@@H](NC(=O)[C@H](Cc1ccccc1)NC(=O)CCCCCNC(=O)CN1CCN(CC(=O)O)CCN(CC(=O)O)CCN(CC(=O)O)CC1)C(C)C)C(=O)N[C@@H](CCC(=O)O)C(=O)N1CCC[C@H]1C(=O)N[C@@H](CC(=O)O)C(=O)N[C@H](C(=O)N[C@@H](CO)C(=O)N[C@@H](CCC(N)=O)C(=O)N[C@H](C(=O)N[C@@H](CCC(N)=O)C(=O)N[C@@H](CC(=O)O)C(=O)N1CCC[C@H]1C(=O)N[C@@H](CC(N)=O)C(=O)N[C@@H](CC(=O)O)C(=O)N[C@@H](CCC(N)=O)C(=O)N[C@@H](Cc1ccc(O)cc1)C(=O)N[C@@H](CCC(=O)O)C(=O)N1CCC[C@H]1C(=O)N[C@@H](Cc1ccccc1)C(=O)O)C(C)C)C(C)C [copper-64 labelled]	dynamic PET	mouse, CT26 tumour, untreated, tumour	intravenous, 100 µCi/mouse, 1740 s		SUVmean	1.25 SUV
CCCCCCCCCCCC(=O)C(C)C(=O)N1CCC[C@H]1C(=O)NC(C)(C)C(=O)NC(C)(C)C(=O)NC(C)(C)C(=O)N[C@](C)(CC)C(=O)NCCC(=O)N[C@@H](C)C(=O)N[C@](C)(CC)C(=O)N[C@@H](C)C(=O)N[C@@H](CC(C)C)C(=O)N[C@](C)(CC)C(=O)NCCC(=O)N[C@@H](C)C(=O)N[C@](C)(CC)C(=O)NCCC(=O)N[C@@H](C)C(=O)NC(C)(C)C(=O)NC(C)(C)C(=O)NC(C)(C)C(=O)N[C@@H](C)C(=O)N[C@@H](CC(=O)O)C(=O)O (stereo partly shown)	LC-MS	buffer with human neutrophil elastase	40 µM, 120 min, pH 7.5, 37 °C	reference: 0 h	remaining intact peptide	66.3% and 64.7%
CCCCCCCCCCCCCCCC(=O)N[C@@H](CCC(=O)NCCCC[C@H](NC(=O)[C@H](CC(=O)O)NC(=O)[C@H](CO)NC(=O)[C@@H](NC(=O)[C@H](Cc1ccccc1)NC(=O)[C@@H](NC(=O)CNC(=O)[C@H](CCC(N)=O)NC(=O)[C@H](C)NC(=O)[C@@H](Cc1ccc(O)cc1)NC(C)=O)[C@@H](C)O)[C@@H](C)O)C(=O)N[C@@H](CO)C(=O)N[C@@H](CCCCN)C(=O)N[C@@H](Cc1ccc(O)cc1)C(=O)N[C@@H](CC(C)C)C(=O)N[C@@H](CC(=O)O)C(=O)N[C@@H](CCC(=O)O)C(=O)N[C@@H](CCCNC(=N)N)C(=O)N[C@@H](C)C(=O)N[C@@H](C)C(=O)N[C@@H](CCC(N)=O)C(=O)N[C@@H](CC(=O)O)C(=O)N[C@@H](Cc1ccccc1)C(=O)N[C@H](C(=O)N[C@@H](CCC(N)=O)C(=O)N[C@@H](Cc1c[nH]c2ccccc12)C(=O)N[C@@H](CC(C)C)C(=O)N[C@@H](CC(C)C)C(=O)N[C@@H](CCC(=O)O)C(=O)NCC(=O)NCC(=O)N1CCC[C@H]1C(=O)N[C@@H](CO)C(=O)N[C@@H](CO)C(=O)NCC(=O)N[C@@H](C)C(=O)N1CCC[C@H]1C(=O)N1CCC[C@H]1C(=O)N1CCC[C@H]1C(=O)N[C@@H](CO)C(N)=O)C(C)C)C(=O)O		male cynomolgus monkey, plasma	subcutaneous, 0.0161 mg/kg		AUC(0-last)	2080 ng·h/mL
CC1(C)C(NC(=O)C(=NOC2(C(=O)O)CC2)c2csc(N)n2)C(=O)N1OS(=O)(=O)O (stereo not shown)		zebrafish embryos			teratogenic index LD50/EC50	< 1
[2H]C([2H])([18F])[C@]([2H])(N)C(=O)O		mouse, bone	110 min, tumour-bearing		tracer uptake	16.4 %ID/g

Repeated from above:
Compound	test	test system	setting	scale	measurement	result
NC1CCN(C(=O)Oc2ccc(C3CCCC4(C3)OOC3(O4)C4CC5CC(C4)CC3C5)cc2)CC1 (racemic)		male mouse, plasma	intravenous, 10 mg/kg		clearance	147 mL/min/kg
